Assay results pooled from the literature.
Compare with care: the assays were run in different laboratories. Several values in a cell are separate wells, animals, samples, runs or records. ± marks the error that the study gave.
Baiap2: BAR/IMD domain-containing adapter protein 2 (Baiap2, Rattus norvegicus, UniProt Q6GMN2)
UniProt Q6GMN2, sequence (whole entry, looked up): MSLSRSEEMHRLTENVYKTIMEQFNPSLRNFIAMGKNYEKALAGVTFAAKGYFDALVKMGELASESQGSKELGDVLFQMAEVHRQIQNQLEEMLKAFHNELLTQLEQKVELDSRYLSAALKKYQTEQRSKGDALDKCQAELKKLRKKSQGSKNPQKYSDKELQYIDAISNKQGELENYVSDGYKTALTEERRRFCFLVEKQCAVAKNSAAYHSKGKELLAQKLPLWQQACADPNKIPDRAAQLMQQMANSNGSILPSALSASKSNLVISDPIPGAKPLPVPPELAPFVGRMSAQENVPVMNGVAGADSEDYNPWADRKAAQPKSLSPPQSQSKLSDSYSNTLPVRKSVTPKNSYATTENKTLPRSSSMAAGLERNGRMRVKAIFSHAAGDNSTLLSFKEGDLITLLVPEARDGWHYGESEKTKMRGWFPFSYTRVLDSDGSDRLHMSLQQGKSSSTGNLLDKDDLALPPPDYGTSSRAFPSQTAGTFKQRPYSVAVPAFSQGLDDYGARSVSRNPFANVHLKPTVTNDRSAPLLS
pbpA: Penicillin-binding protein 1A (pbpA, Streptococcus pneumoniae, UniProt Q8DR59)
UniProt P06276, sequence (whole entry, looked up): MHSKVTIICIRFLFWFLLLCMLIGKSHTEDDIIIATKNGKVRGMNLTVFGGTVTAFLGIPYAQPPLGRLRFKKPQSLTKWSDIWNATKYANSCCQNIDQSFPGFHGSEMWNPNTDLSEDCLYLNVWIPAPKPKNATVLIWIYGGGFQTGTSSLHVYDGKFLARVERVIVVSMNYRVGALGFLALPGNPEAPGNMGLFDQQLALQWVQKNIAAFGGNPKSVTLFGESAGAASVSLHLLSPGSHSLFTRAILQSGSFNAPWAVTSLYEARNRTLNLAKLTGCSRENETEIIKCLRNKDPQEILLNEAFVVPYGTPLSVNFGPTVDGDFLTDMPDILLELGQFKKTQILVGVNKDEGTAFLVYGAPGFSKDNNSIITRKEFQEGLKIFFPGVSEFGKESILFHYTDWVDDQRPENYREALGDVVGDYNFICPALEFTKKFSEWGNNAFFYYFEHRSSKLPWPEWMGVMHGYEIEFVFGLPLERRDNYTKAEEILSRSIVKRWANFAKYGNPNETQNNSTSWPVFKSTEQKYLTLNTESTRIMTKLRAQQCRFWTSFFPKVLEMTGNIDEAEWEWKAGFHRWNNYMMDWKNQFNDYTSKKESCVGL
UniProt P27361, sequence (whole entry, looked up): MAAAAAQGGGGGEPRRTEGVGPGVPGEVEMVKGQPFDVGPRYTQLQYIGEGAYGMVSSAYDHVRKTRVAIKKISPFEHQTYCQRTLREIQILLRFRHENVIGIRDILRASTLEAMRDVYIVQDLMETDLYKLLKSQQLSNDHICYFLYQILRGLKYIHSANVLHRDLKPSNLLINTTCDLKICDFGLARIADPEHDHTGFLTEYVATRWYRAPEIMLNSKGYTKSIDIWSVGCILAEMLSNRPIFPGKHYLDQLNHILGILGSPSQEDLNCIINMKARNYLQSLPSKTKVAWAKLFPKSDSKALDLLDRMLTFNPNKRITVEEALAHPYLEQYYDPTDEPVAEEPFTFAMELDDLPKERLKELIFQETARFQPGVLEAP
UniProt P43251, sequence (whole entry, looked up): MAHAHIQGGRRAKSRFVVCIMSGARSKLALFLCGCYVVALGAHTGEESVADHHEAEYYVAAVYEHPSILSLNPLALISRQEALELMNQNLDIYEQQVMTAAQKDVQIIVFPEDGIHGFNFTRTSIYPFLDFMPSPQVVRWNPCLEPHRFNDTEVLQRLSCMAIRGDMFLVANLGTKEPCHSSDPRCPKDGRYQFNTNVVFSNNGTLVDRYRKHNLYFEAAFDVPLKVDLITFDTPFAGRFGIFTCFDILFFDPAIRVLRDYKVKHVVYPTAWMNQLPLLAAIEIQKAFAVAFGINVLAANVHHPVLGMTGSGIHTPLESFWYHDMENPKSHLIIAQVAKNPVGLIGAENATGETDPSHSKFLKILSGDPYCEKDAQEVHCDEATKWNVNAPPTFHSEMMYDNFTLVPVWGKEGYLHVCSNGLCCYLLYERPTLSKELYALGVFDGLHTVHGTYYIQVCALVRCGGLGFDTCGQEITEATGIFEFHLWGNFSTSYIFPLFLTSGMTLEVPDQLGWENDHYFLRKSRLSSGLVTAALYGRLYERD
UniProt Q8DR59, sequence (whole entry, looked up): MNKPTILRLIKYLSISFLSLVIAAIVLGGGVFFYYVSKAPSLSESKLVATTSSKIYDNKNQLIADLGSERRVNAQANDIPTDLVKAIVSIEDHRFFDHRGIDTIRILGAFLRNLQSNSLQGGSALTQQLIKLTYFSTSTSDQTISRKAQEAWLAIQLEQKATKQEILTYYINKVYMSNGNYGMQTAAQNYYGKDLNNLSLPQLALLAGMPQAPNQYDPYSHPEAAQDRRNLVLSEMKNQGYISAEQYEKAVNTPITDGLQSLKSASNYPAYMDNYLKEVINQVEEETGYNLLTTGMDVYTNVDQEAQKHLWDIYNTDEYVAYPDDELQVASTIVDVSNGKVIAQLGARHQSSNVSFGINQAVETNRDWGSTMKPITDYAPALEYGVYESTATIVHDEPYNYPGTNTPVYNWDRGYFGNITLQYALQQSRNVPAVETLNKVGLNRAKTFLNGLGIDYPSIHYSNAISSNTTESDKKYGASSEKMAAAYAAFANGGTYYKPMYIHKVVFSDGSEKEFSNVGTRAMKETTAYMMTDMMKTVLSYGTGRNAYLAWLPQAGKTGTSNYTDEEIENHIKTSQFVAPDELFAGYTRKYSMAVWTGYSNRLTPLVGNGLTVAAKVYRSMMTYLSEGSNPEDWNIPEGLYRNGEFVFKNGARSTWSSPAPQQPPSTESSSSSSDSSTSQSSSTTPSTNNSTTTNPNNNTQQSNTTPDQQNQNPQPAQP
UniProt P81908, sequence (whole entry, looked up): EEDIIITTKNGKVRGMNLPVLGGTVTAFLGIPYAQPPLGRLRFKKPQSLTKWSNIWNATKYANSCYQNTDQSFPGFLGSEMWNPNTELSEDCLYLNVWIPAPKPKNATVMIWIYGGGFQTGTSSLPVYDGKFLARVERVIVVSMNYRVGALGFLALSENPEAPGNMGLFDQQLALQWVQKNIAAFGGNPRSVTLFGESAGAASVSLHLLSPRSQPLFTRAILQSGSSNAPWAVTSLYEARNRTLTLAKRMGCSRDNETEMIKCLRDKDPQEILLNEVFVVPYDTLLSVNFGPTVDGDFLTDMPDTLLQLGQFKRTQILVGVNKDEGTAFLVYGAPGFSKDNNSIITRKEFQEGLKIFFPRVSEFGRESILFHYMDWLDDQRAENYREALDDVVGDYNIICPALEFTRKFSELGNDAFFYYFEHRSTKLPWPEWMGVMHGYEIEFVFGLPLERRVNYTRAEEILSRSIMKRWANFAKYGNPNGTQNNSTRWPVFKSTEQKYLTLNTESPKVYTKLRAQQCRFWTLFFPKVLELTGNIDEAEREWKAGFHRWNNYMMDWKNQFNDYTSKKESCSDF
UniProt P35968, sequence (whole entry, looked up): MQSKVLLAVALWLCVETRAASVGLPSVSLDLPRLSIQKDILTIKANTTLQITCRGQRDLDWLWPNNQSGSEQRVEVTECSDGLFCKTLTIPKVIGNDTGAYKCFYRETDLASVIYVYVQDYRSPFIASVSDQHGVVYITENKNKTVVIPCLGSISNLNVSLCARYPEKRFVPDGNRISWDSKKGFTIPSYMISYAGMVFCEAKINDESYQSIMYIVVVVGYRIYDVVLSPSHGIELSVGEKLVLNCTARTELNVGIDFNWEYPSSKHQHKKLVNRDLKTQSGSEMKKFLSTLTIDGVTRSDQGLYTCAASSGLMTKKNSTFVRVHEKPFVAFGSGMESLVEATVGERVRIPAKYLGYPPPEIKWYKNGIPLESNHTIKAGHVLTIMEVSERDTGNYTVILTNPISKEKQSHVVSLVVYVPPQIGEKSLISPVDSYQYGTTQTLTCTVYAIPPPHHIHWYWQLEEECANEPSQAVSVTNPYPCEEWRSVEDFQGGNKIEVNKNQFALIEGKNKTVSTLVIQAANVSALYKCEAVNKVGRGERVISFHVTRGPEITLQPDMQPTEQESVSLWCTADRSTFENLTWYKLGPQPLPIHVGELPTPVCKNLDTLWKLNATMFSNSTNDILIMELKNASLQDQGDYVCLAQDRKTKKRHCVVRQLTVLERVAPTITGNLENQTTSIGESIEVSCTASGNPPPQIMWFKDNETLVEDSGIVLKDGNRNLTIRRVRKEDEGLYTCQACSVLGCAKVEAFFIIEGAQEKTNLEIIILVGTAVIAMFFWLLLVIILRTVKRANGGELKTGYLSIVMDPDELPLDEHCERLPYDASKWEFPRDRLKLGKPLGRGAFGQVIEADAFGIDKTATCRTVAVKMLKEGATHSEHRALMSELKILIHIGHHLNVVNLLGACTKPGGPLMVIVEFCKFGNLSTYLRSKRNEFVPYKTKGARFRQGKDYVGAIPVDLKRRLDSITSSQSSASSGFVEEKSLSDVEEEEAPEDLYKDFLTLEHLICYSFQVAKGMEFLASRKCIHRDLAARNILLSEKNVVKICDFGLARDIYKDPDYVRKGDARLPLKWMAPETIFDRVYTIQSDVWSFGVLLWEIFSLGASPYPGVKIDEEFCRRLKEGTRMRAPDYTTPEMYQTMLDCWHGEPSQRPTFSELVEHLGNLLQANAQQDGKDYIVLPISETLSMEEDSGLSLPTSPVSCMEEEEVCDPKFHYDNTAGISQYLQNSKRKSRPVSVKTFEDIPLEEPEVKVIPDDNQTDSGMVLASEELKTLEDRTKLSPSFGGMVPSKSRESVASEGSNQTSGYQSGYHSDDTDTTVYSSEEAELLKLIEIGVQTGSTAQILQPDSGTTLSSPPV
UniProt P38489, sequence (whole entry, looked up): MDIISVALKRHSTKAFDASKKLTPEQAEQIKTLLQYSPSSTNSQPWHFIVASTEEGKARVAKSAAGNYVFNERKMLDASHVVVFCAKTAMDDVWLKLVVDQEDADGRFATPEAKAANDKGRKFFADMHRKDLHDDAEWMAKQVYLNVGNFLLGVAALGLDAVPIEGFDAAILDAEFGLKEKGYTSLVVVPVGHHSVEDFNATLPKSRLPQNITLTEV

For CCCC(C(=O)O)c1c(C)nc2ccc(Cl)cc2c1-c1ccccc1 (stereo not drawn), “minimal concentration increasing Venus ratio” read ≥ 5 µM (Gag-Pol polyprotein, integrase (gag-pol, Human immunodeficiency virus 1, UniProt P12497); BiFC flow cytometry; HEK293T; relative to: DMSO).
The probe labelling of O=C(Nc1cccnn1)N1CCC(=Cc2cccc(Oc3ccc(C(F)(F)F)cn3)c2)CC1 is reported as -2 (Baiap2; competitive ABPP with azido-FP probe, measured: BAIAP2; rat brain membrane fraction; 0.1 µM, unit not given; relative to: DMSO).
For COc1cc(Nc2ncc(F)c(Nc3ccc4c(n3)NC(=O)C(C)(C)O4)n2)cc(OC)c1OC, the inhibition was 0% (Mitogen-activated protein kinase kinase kinase 7 (MAP3K7, Homo sapiens, UniProt O43318); binding, KINOMEscan; 10 µM, TAK1 kinase).
COc1c(N2CC3CCCN(C(=O)OCc4ccc([N+](=O)[O-])cc4)C3C2)c(F)cc2c(=O)c(C(=O)O)cn(C3CC3)c12 (stereo not drawn) has a kcat of 0.0508 s⁻¹ (Oxygen-insensitive NAD(P)H nitroreductase (nfsB, Escherichia coli K-12, UniProt P38489); substrate; added: NADH 100 µM).
With CN(C(=O)n1cnc(-c2ccc[n+]([O-])c2)c1)C1CCCCC1 the inhibition was 37.9% (Abhydrolase domain-containing protein 11 (Rattus norvegicus, UniProt D3ZXK4); probe labelling, inhibitor, competitive ABPP with azido-FP probe, measured: Abhd11; rat brain soluble fraction; 100 µM).
Oc1ccc(-c2cc(Cl)ccc2Cl)c(Cl)c1 has an IC25 of 1.5 µM (Androgen receptor (AR, Homo sapiens, UniProt P10275); reporter gene, antagonist; 24 h, added: DHT 2 nM).
For C[C@H]1COCCN1c1nc(NCc2cccnc2C(F)(F)F)c2cccnc2n1, the IC50 was > 100 µM (Vascular endothelial growth factor receptor 2 (KDR, Homo sapiens, UniProt P35968); binding; CEREP panel).
COc1cc(Br)cc(Br)c1Oc1cc(Br)cc(Br)c1O has an apparent Vmax of 121 nmol/min/mg protein (Sulfotransferase 1B1 (SULT1B1, Homo sapiens, UniProt O43704); sulfonation, substrate).
CC1(C)CC(NC(=O)C(=O)Nc2ccc(Cl)cc2)CC(C)(C)N1 — result for “binding free energy”: -7.2 kcal/mol (Envelope glycoprotein gp160, gp120 (env, Human immunodeficiency virus type 1 group M subtype B, UniProt P35961); urea denaturation, Trp fluorescence; PBS; 50 µM, pH 7.5).
With COCC(=O)O[C@]1(CCN(C)CCCc2nc3ccccc3[nH]2)CCc2cc(F)ccc2[C@@H]1C(C)C the efficacy was -91.2 ± 13% (Cholinesterase (BCHE, Homo sapiens, UniProt P06276); concentration not given, Triton).
The activation of CN1CCN(c2cc(-c3ccncc3)c(-c3ccc4ccccc4c3)nn2)CC1 is reported as 3.3% (Alpha-2C adrenergic receptor (ADRA2C, Homo sapiens, UniProt P18825); agonist, FLIPR; 12.5 µM).
For Nc1ccn([C@H]2C[C@H](O)[C@@H](COP(=O)(O)OP(=O)(O)OP(=O)(O)O)O2)c(=O)n1, the kcat was 0.134 ± 0.0255 s⁻¹ (Gag-Pol polyprotein, reverse transcriptase (gag-pol, Human immunodeficiency virus type 1 group M subtype B, UniProt P04585, K653T); nucleotide misincorporation, steady-state kinetics; K66T RT, added: matched template/primer, template T).
The selectivity ratio of COc1cc2nccc(Oc3ccc(NC(=O)c4cc5c(n(-c6ccccc6)c4=O)CCCC5=O)nc3)c2cc1OC is reported as 1 (Tyrosine-protein kinase Mer (MERTK, Homo sapiens, UniProt Q12866); cell viability, CellTiter-Glo; Ba/F3 expressing recombinant kinase; relative to: MERTK IC50 over AXL IC50).
CCN(C)C(=O)Oc1ccc(CCC(=O)N2CCN(Cc3ccccc3)CC2)cc1OC gave a selectivity ratio of 1.1 (Cholinesterase (BCHE, Equus caballus, UniProt P81908); Ellman; equine serum BuChE; relative to: AChE IC50 over BuChE IC50).
Under “surface TFRC expression”, CC[C@@H](C)[C@@H](NC(=O)[C@@H](Cc1ccc(O)cc1)NC(=O)[C@H]1CCCN1C(=O)[C@@H](CCCNC(=N)N)NC(=O)[C@H](N)Cc1c[nH]cn1)C(=O)N[C@H](C)C(=O)N[C@H](Cc1c[nH]cn1)C(=O)N[C@H](CCCNC(=N)N)C(=O)N[C@H](CCCCNC(=O)c1cccc(S(=O)(=O)F)c1)C(=O)N[C@H](Cc1ccc(O)cc1)C(=O)N[C@H](CO)C(=O)N[C@H](Cc1ccccc1)C(N)=O is recorded as 0.489 (Transferrin receptor protein 1 (Tfrc, Mus musculus, UniProt Q62351); flow cytometry; DC2.4; 48 h, pH 7.4, unit not given; relative to: 0 h).
C#CCNCC(=O)O has a kinact/KI of 30 ± 1 M⁻¹ s⁻¹ (putA (Sinorhizobium meliloti, UniProt F7X6I3); covalent inactivator; 23 °C).
O=C(c1ccc(Cl)cc1)N1CCN2C(=O)N(OC(=O)N3CCOc4ccccc43)C(=O)C2C1 (stereo not drawn) has a peptide ratio of 2.1 and 1.41 and 1.42 and 2.18 (Biotinidase (Homo sapiens, UniProt P43251); MS-based ABPP; SW-620 conditioned medium; 10 µM, 1 h, 37 °C; relative to: compound over DMSO, lower = more inhibition).
For COc1cc(N)c(Cl)cc1C(=O)NC1CN2CCC1CC2 (stereo not drawn), “log2 fold change” read -0.027 (GPR101 (Homo sapiens, UniProt Q96P66); β-arrestin recruitment, TANGO luminescence; concentration not given; relative to: basal luminescence).
The relative abundance of C[C@H]1CN(c2n[nH]c3nc(N[C@H]4CC[C@H](NS(=O)(=O)CCC(F)(F)F)CC4)ncc23)CCO1 is reported as 1.19 (RAC-beta serine/threonine-protein kinase (AKT2, Homo sapiens, UniProt P31751); inhibitor, Kinobeads competition profiling; 0.8 µM; relative to: vehicle).
CCN(C)C(=O)Oc1ccc(CCC(=O)N2CCC(Cc3ccccc3)CC2)cc1 has a selectivity ratio of 0.5 (Cholinesterase (BCHE, Equus caballus, UniProt P81908); Ellman; equine serum BuChE; relative to: AChE IC50 over BuChE IC50).
For COC(=O)[C@@]1(O)C[C@H]2O[C@]1(C)n1c3ccccc3c3c4c(c5c6ccccc6n2c5c31)C(=O)NC4, the kinase activity was 9.24% and 4.55% and 6.51% (Mitogen-activated protein kinase 3 (MAPK3, Homo sapiens, UniProt P27361); ADP-Glo; 1.58 µM, added: MBP substrate).
C[C@H](CCC(=O)O)[C@H]1CC[C@H]2[C@@H]3CC[C@H]4C[C@@H](O)CC[C@]4(C)[C@H]3CC[C@]12C gave a delta Tm of ~5 °C (MerR family transcriptional regulator (Clostridioides difficile, UniProt Q181I6); differential scanning fluorimetry; 32 µM).
The EC10 of Nc1cnn(-c2ccccc2)c(=O)c1Cl is reported as 23 µM (Peroxisome proliferator-activated receptor gamma (PPARG, Homo sapiens, UniProt P37231); reporter gene, agonist, β-lactamase reporter; HEK293-H cells; 24 h, nominal concentration; relative to: 10% of rosiglitazone maximum effect).
For O=C(Nc1cnccc1Cl)N1CCN(Cc2ccc3c(c2)OC(F)(F)O3)CC1, the probe labelling was -1.9 (Baiap2; competitive ABPP with azido-FP probe, measured: BAIAP2; rat brain membrane fraction; 1 µM, unit not given; relative to: DMSO).
CC(Oc1ccc(Cl)cc1Cl)C(=O)O (racemic) — result for “umami receptor response”: “no effect” (T1R1/T1R3 (Homo sapiens, UniProt Q7RTX0+Q7RTX1); luminescence; cells stably expressing T1R1/T1R3; concentration not given, added: MSG).
COCC(=O)O[C@]1(CCN(C)CCCc2nc3ccccc3[nH]2)CCc2cc(F)ccc2[C@@H]1C(C)C gave an IC50 of 2 µM (Plasmodium falciparum; 7G8).
For CC1(C)S[C@@H]2[C@H](NC(=O)Cc3ccccc3)C(=O)N2[C@H]1C(=O)O, the kinact/KI was 70000 ± 20000 M⁻¹ s⁻¹ (pbpA; inhibitor).
For COc1ccc2c3c([nH]c2c1)CCN(C)CC3.O=C(O)/C=C/C(=O)O, the Hill coefficient was 1.6 (Voltage-dependent N-type calcium channel subunit alpha-1B (Homo sapiens, UniProt Q00975); barium current, inhibitor, whole-cell patch clamp; HEK293T).
With [2H]c1c([2H])c([C@]2([2H])CCCN2C(=O)C(C)(C)Oc2ccc3cn[nH]c3c2)c([2H])c([2H])c1C([2H])([2H])[2H] the remaining binding was 100% (Calcium/calmodulin-dependent protein kinase type 1B (PNCK, Homo sapiens, UniProt Q6P2M8); KINOMEscan; 1 µM; relative to: DMSO control).
For CO/N=C(\C(=O)N[C@@H]1C(=O)N2C(C(=O)O)=C(COC(C)=O)CS[C@H]12)c1csc(N)n1, the kinact/KI was 10000 ± 5000 M⁻¹ s⁻¹ (pbpA; inhibitor).
Clc1ccc(Nc2nc3ccccc3c3nc(C4CCCCC4)[nH]c23)cc1Cl — result for activity class: “inactive” (Cholinesterase (BCHE, Homo sapiens, UniProt P06276); biochemical; concentration not given).
CNCCC=C1c2ccccc2CCc2ccccc21 has an IC50 of 3.98 µM (Plasmodium falciparum; Dd2).
Cc1[nH]c(C)c(S(=O)(=O)Nc2ccc(S(F)(F)(F)(F)F)cc2)c1C(=O)N1CCC(F)(F)C1 gave an Imax of 99 ± 3% (D(3) dopamine receptor (DRD3, Homo sapiens, UniProt P35462); β-arrestin recruitment, agonist, PathHunter; relative to: dopamine).
CC(=O)N[C@@H](C)C(=O)N1CCC[C@H]1C(=O)N[C@@H](CC(C)C)C(=O)N[C@H](C(=O)N[C@@H](CCCNC(=N)N)C(=O)NCC(=O)N[C@@H](CO)C(=O)N[C@@H](CS)C(=O)N[C@@H](CCCNC(=N)N)C(=O)N[C@@H](CCCCN)C(=O)N[C@@H](CCCNC(=N)N)C(=O)N[C@@H](CC(N)=O)C(=O)N[C@@H](CCCNC(=N)N)C(=O)N[C@@H](CO)C(=O)N1CCC[C@H]1C(=O)N[C@@H](CCC(=O)O)C(=O)N[C@@H](CCCNC(=N)N)C(N)=O)[C@@H](C)O gave a ΔH of -2.1 kcal/mol (WD repeat-containing protein 5 (WDR5, Homo sapiens, UniProt P61964); binding, competitor of LANA peptide, ITC; pH 7.0, 20 °C, WIN motif peptide).
C#C[C@H](C)NCC(=O)O gave a KI inactivation of 9100 ± 5200 µM (putA, PRODH domain (Sinorhizobium meliloti, UniProt F7X6I3, del84-189); inactivator).
CC(C)OC(=O)C1=CN(C(=O)c2ccc(F)c(F)c2)CC(C)(C)c2c1[nH]c1ccccc21 gave an efficacy of -58.9 ± 2.44% (Cholinesterase (BCHE, Homo sapiens, UniProt P06276); concentration not given, Triton).
Under “response relative to ACh”, C[N+]1(C)CCN(c2ccccc2)CC1 is recorded as 70% (Neuronal acetylcholine receptor; alpha4/beta2 (Homo sapiens, UniProt P17787+P43681); peak current, agonist, two-electrode voltage clamp; Xenopus oocytes; 30 µM, human receptor; relative to: ACh 30 µM).
For CCN(CC)CCOC(=O)C(Cc1cccc2ccccc12)CC1CCCO1 (stereo not drawn), the efficacy was -95.3 ± 3.57% (Cholinesterase (BCHE, Homo sapiens, UniProt P06276); concentration not given, Triton).
COc1ccc(N2C(=O)N(c3c(C)cccc3Cl)Cc3cnc(Nc4ccc(C5CCN(C)CC5)cc4OC)nc32)nc1 has an inhibition of 4% (Rho-associated protein kinase 1 (ROCK1, Homo sapiens, UniProt Q13464); kinase activity; 0.5 µM).

Some of these lines once more:
With [2H]c1c([2H])c([C@]2([2H])CCCN2C(=O)C(C)(C)Oc2ccc3cn[nH]c3c2)c([2H])c([2H])c1C([2H])([2H])[2H] the remaining binding was 100% (Calcium/calmodulin-dependent protein kinase type 1B (PNCK, Homo sapiens, UniProt Q6P2M8); KINOMEscan; 1 µM; relative to: DMSO control).
For CO/N=C(\C(=O)N[C@@H]1C(=O)N2C(C(=O)O)=C(COC(C)=O)CS[C@H]12)c1csc(N)n1, the kinact/KI was 10000 ± 5000 M⁻¹ s⁻¹ (pbpA; inhibitor).
Clc1ccc(Nc2nc3ccccc3c3nc(C4CCCCC4)[nH]c23)cc1Cl — result for activity class: “inactive” (Cholinesterase (BCHE, Homo sapiens, UniProt P06276); biochemical; concentration not given).
